Assay results collected from several papers.
Protocols differ between the studies behind these lines. ± gives the spread as reported.
PLEKHA5 PH domain: Pleckstrin homology domain-containing family A member 5, PH domain (PLEKHA5, Homo sapiens, UniProt Q9HAU0)
Sequence of UniProt Q9HAU0 (whole entry, looked up): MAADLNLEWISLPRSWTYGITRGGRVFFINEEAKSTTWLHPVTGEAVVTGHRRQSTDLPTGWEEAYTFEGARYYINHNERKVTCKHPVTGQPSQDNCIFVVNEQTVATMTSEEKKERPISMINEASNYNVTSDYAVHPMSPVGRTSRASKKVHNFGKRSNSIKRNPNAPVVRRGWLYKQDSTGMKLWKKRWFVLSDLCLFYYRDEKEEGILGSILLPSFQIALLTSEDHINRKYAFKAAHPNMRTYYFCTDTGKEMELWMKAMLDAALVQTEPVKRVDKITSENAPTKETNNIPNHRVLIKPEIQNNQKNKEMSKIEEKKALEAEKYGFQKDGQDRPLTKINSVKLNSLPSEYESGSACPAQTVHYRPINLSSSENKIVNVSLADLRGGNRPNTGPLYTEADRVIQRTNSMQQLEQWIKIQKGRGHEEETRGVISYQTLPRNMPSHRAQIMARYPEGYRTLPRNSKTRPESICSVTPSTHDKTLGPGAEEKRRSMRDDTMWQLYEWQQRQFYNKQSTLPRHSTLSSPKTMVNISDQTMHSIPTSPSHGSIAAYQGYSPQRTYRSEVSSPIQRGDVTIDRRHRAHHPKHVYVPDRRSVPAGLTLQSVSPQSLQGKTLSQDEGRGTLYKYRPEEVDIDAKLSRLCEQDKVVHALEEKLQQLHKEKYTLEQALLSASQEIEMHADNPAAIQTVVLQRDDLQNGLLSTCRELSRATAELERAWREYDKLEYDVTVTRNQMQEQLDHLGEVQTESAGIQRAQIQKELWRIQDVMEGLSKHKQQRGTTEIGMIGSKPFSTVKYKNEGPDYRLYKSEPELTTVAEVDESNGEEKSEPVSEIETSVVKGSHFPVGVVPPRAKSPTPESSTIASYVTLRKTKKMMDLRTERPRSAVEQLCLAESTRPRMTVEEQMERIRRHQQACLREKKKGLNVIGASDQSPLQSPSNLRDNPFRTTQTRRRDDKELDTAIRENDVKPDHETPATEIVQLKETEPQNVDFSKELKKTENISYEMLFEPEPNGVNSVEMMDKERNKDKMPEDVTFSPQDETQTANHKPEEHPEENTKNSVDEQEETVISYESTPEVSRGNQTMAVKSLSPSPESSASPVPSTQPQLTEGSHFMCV
Alpha-carbonic anhydrase: Alpha-carbonic anhydrase (Enterococcus faecium, UniProt Q3XYE8)
USP49 ZnF-UBD domain: Ubiquitin carboxyl-terminal hydrolase 49, ZnF-UBD domain (USP49, Homo sapiens, UniProt Q70CQ1)
Sequence of UniProt Q70CQ1 (whole entry, looked up): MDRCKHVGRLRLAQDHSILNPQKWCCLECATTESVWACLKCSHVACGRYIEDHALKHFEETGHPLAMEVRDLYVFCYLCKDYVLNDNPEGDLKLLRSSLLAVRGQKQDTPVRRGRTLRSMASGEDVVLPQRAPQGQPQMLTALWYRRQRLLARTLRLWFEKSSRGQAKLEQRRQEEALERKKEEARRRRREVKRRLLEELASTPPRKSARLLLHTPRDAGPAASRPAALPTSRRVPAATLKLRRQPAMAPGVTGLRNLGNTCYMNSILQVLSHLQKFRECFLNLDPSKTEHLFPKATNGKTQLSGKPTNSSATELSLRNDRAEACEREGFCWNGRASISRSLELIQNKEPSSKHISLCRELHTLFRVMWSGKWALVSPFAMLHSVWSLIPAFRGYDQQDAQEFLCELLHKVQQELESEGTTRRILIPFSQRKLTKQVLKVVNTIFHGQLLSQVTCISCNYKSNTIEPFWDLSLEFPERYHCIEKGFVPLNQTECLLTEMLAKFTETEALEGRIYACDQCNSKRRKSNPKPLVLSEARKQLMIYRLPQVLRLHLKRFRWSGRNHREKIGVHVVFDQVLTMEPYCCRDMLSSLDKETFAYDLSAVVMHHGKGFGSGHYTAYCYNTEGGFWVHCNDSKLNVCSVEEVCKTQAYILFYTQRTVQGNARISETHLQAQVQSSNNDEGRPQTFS
Sequence of UniProt Q9UNQ0 (whole entry, looked up): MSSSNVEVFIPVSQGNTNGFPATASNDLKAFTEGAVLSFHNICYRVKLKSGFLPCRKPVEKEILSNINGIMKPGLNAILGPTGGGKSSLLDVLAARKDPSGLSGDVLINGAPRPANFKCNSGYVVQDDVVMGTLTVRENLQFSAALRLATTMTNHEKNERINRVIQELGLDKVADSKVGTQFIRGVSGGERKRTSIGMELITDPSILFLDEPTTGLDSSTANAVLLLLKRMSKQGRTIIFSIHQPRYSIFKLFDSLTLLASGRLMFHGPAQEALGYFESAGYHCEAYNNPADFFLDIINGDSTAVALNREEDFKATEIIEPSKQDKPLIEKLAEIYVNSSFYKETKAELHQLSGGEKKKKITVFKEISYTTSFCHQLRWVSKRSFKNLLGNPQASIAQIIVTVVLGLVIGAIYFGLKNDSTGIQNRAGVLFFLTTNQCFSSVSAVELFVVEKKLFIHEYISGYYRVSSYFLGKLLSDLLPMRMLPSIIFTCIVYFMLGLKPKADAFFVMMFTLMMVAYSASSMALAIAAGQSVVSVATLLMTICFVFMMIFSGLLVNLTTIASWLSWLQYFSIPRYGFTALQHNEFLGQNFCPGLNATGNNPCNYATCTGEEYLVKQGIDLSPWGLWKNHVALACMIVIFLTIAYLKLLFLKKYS
Sequence of UniProt Q9UHM6 (whole entry, looked up): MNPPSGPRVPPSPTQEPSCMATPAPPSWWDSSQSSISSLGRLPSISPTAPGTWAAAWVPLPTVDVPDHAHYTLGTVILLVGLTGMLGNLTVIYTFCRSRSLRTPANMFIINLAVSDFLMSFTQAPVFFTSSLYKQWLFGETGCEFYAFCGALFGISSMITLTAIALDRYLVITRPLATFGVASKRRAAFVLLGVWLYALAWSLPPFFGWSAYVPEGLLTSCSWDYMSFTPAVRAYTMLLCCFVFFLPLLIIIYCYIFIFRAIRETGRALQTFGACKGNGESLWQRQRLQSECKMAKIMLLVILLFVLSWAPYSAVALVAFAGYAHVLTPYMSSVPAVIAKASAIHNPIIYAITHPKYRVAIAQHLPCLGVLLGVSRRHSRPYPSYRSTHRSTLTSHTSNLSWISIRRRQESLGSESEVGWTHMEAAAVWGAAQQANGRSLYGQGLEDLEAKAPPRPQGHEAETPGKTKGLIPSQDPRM
Sequence of UniProt P34972 (whole entry, looked up): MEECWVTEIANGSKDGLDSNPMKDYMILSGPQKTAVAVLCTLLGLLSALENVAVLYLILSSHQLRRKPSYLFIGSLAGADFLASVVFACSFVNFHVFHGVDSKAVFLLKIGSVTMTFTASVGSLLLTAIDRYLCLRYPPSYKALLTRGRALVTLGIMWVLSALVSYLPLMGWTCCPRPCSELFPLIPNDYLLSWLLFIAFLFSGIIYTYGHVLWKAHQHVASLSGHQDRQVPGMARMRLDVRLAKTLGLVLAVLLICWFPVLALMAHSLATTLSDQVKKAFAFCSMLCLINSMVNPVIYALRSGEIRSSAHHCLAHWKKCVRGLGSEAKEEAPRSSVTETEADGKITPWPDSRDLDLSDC
Sequence of UniProt P52790 (whole entry, looked up): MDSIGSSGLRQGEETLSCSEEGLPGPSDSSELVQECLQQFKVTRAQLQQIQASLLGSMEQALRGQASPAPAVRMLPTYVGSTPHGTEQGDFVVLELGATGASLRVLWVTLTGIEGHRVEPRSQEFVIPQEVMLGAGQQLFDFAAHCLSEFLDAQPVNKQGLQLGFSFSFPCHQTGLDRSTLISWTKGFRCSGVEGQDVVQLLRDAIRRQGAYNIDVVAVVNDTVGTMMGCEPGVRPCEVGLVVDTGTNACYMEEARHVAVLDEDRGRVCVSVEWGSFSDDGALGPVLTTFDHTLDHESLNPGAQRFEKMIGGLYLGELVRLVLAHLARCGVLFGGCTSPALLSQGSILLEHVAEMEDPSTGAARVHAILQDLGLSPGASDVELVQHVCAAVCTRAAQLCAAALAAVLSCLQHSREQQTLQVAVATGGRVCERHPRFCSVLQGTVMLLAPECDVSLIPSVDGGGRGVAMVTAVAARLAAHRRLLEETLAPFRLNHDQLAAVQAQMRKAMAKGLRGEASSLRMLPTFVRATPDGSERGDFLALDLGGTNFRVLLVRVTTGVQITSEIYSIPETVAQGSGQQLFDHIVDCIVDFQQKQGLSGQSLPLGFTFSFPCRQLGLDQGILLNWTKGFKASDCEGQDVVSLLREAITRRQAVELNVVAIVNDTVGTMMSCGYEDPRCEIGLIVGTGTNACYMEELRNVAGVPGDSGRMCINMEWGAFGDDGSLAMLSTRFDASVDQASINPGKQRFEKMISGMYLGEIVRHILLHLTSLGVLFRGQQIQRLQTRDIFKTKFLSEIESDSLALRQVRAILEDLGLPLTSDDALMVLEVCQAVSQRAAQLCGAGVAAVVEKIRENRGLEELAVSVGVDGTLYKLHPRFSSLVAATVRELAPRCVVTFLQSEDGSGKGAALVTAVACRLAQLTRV

For `O=c1cc(-c2ccc(O)c(O)c2)oc2cc(O[C@@H]3O[C@H](CO)[C@@H](O)[C@H](O)[C@H]3O)cc(O)c12`, the Ki was 137 µM (LDHA (Homo sapiens, UniProt P00338); enzyme activity, inhibitor; with: 150 µM NADH, varied pyruvate; competition with pyruvate).
The Ki of `CCOc1cccc(C(=O)CC(SCc2ccc(Cl)cc2)C(=O)O)c1` (stereo not shown) is reported as 16.4 ± 1.8 µM (PLEKHA5 PH domain; PLEKHA5 PI(4,5)P2 binding, fluorescence polarization; with: BODIPY-PI(4,5)P2 tracer).
For `Cc1ccccc1C(=O)Nc1nnc(S(N)(=O)=O)s1`, the Ki was 0.0089 µM (Alpha-carbonic anhydrase; CO2 hydration, inhibitor, stopped-flow kinetics).
For `COc1cc(Cl)c(S(=O)(=O)N2CCCCC2)cc1Cl`, the Ki was 0.00048 µM (Melanopsin (OPN4, Homo sapiens, UniProt Q9UHM6); binding, radioligand binding; CHO membranes expressing OPN4; with: [3H]-labelled ligand).
`O=C(O)CCc1nccs1` gave a Kd of > 1000 µM (USP49 ZnF-UBD domain).
The Ki of `NS(=O)(=O)c1nnc(NC(=O)C2CC23CCCCC3)s1` (stereo not shown) is reported as 0.0713 µM (Alpha-carbonic anhydrase; CO2 hydration, inhibitor, stopped-flow kinetics).
The Ki of `C#CCOc1cccc(C(=O)CC(SCc2cccc(Br)c2)C(=O)O)c1` (stereo not shown) is reported as 10.5 ± 1.9 µM (PLEKHA5 PH domain; PLEKHA5 PI(4,5)P2 binding, fluorescence polarization; with: BODIPY-PI(4,5)P2 tracer).
The Ki of `CC1(C)CCCN(CC(=O)Nc2nnc(S(N)(=O)=O)s2)C1` is reported as 0.0116 µM (Alpha-carbonic anhydrase; CO2 hydration, inhibitor, stopped-flow kinetics).
With `N#Cc1ccc(COc2cccc(C3CCN(Cc4nc5ccc(C(=O)O)cc5n4C[C@@H]4CCO4)CC3)n2)c(F)c1` the Ki was 2.9 µM (chloride channel).
`CCOC(=O)[C@H](CCSC)NC(=O)c1ccc(C2CC2)c(Cc2ccc(F)cc2)n1` has a Ki of 0.012 µM (CNR2 (Homo sapiens, UniProt P34972); binding).
For `O=C(O)c1ccc(Cn2ccnc2)o1`, the Ki was 150 ± 8.4 µM (WDR5 (Homo sapiens, UniProt P61964); fluorescence polarization competition; with: FITC-MLL1 peptide).
The Ki of `CC1(C(=O)Nc2nnc(S(N)(=O)=O)s2)CCC1` is reported as 0.0262 µM (Alpha-carbonic anhydrase; CO2 hydration, inhibitor, stopped-flow kinetics).
With `CCOC(=O)c1cc(-c2ccc(OCC)cc2)oc1-c1ccc(Cl)cc1` the Ki was > 100 µM (PLEKHA5 PH domain; PLEKHA5 PI(4,5)P2 binding, fluorescence polarization; with: BODIPY-PI(4,5)P2 tracer).
`Cc1ccc(CCC(=O)Nc2nnc(S(N)(=O)=O)s2)cc1` gave a Ki of 0.0316 µM (Alpha-carbonic anhydrase; CO2 hydration, inhibitor, stopped-flow kinetics).
With `CCOc1ccc(C(=O)CC(SCc2ccccc2)C(=O)O)cc1` (stereo not shown) the Ki was 89 ± 22 µM (PLEKHA5 PH domain; PLEKHA5 PI(4,5)P2 binding, fluorescence polarization; with: BODIPY-PI(4,5)P2 tracer).
`NS(=O)(=O)c1nnc(NC(=O)C2CCC3(CCCCC3)C2)s1` (stereo not shown) has a Ki of 0.0669 µM (Alpha-carbonic anhydrase; CO2 hydration, inhibitor, stopped-flow kinetics).
The Ki of `CCOc1ccc(-c2cc(C(=O)O)c(-c3ccc(Cl)cc3)o2)cc1` is reported as 1.93 ± 0.94 µM (PLEKHA5 PH domain; PLEKHA5 PI(4,5)P2 binding, fluorescence polarization; with: BODIPY-PI(4,5)P2 tracer).
For `Cc1ccc(S(=O)(=O)n2cc(/C=N/NC(=S)Nc3cccc([N+](=O)[O-])c3)c3ccccc32)cc1`, the Ki was 10.25 ± 0.08 µM (mushroom tyrosinase; inhibitor; with: L-DOPA).
`O=C(O)CCC(=O)c1ccc2c(c1)CCC(=O)N2` has a Kd of 99.9 µM (USP49 ZnF-UBD domain).
`OC[C@H]1OC(O)[C@H](O)[C@@H](O)[C@@H]1O` (stereo partly shown) has a Ki of 11000 ± 2000 µM (Hexokinase-3 (HK3, Homo sapiens, UniProt P52790); enzyme activity, substrate inhibitor, coupled G6PDH; complete inhibition model, with: ATP 20 mM).
For `CCOc1ccc(C(=O)CC(SCc2ccc(OC)cc2)C(=O)O)cc1` (stereo not shown), the Ki was 90 ± 13 µM (PLEKHA5 PH domain; PLEKHA5 PI(4,5)P2 binding, fluorescence polarization; with: BODIPY-PI(4,5)P2 tracer).
The Ki of `COc1cc(N2CCC(N3CCN(C)CC3)CC2)ccc1Nc1ncc(Cl)c(Nc2ccccc2P(C)(C)=O)n1` is reported as 10.1 µM (ABCG2 (Homo sapiens, UniProt Q9UNQ0); transport, inhibitor; C2BBe1; with: cladribine 10 µM substrate).

Excerpt of the above:
The Ki of `CC1(C)CCCN(CC(=O)Nc2nnc(S(N)(=O)=O)s2)C1` is reported as 0.0116 µM (Alpha-carbonic anhydrase; CO2 hydration, inhibitor, stopped-flow kinetics).
